Measured values from different studies.
Parts stem from different laboratories: compare values within a part only. “And” joins repeats or separate records; there may be more than shown.
UniProt P28482, sequence (whole entry, looked up): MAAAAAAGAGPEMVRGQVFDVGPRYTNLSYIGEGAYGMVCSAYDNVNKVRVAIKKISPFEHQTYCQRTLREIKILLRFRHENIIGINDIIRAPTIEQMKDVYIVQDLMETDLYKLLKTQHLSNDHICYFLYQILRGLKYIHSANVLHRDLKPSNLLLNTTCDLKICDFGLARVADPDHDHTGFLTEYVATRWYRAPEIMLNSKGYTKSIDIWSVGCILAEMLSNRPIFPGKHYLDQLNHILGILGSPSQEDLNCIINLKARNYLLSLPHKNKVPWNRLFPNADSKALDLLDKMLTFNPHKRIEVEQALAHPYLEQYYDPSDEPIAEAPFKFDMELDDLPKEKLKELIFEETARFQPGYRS
UniProt O94768, sequence (whole entry, looked up): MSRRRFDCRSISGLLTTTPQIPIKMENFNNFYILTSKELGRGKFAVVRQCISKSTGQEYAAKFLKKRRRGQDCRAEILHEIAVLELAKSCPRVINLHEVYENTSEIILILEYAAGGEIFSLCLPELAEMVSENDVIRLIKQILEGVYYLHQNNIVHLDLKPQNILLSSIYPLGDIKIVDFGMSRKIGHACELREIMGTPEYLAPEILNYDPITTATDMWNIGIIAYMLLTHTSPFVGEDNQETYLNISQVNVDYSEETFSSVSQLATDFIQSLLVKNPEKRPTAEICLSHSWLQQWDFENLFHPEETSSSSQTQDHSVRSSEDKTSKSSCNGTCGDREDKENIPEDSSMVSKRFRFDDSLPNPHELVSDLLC

Series 1
Target: Calcium/calmodulin-dependent protein kinase type II subunit alpha (CAMK2A, Homo sapiens, UniProt Q9UQM7)
UniProt Q9UQM7, sequence (whole entry, looked up): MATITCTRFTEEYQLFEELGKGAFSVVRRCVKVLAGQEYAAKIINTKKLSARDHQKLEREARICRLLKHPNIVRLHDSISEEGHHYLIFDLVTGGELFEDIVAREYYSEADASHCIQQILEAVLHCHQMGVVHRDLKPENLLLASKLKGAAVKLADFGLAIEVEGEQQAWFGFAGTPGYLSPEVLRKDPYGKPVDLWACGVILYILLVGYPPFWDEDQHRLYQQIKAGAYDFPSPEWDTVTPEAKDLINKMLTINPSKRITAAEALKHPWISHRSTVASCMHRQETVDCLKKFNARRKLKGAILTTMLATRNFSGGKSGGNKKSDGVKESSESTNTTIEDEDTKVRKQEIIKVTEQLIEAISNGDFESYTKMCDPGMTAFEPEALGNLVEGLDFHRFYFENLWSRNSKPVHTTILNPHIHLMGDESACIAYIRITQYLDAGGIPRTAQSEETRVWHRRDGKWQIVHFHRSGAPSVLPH
Read-out: enzyme activity
Action: inhibitor
Concentration: 10 µM
SMILES | inhibition [%]
C=C1C(=O)[C@]23[C@H](O)[C@H]1CC[C@H]2[C@@]12CO[C@]3(O)[C@@H](O)[C@@H]1C(C)(C)CC[C@@H]2O | -12
COc1ccc(CC(=O)O)cc1 | -14
COc1cccc(-c2oc3ccccc3c(=O)c2O)c1 | -23
O=C(O)COC(=O)Cc1ccccc1Nc1c(Cl)cccc1Cl | -3
Cc1cn([C@@H]2C[C@@H](O)[C@H](CO)O2)c(=O)[nH]c1=O | -14
C[C@@H](O)[C@@H](O)C1=Nc2c(nc(N)[nH]c2=O)NC1 | 0
COc1cc2c(O)c3c(c(-c4ccc5c(c4)OCO5)c2cc1OC)C(=O)OC3 | -27
Oc1cc(O)c2c(c1)O[C@H](c1cc(O)c(O)c(O)c1)[C@H](O)C2 | 10

Series 2
Target: His6 tag
Method: AlphaScreen counter screen
Concentration: concentration not given
SMILES | inhibition
O=C(CSc1ccc2nnc(-c3ccc(Cl)cc3)n2n1)Nc1cccc(F)c1 | -2.65%
CCN(CC)C(=S)Nc1ccc2nc[nH]c(=O)c2c1 | -2.4%
O=S(=O)(c1cccc2cnccc12)N1CCCNCC1 | 9.9% and 4.1%
COC(=O)c1ccccc1NC(=O)CSc1nnc(-c2ccccc2)n1-n1cccc1 | 17.6%
Nc1ncnc2c1c(COc1cccc(Cl)c1)nn2C1CCOCC1 | 4.35%
Cc1c(OCC(F)(F)F)ccnc1C[S+]([O-])c1nc2ccccc2[nH]1 (stereo not drawn) | -3.85%
NC1=N/C(=C2/CCNC(=O)c3[nH]c(Br)cc32)C(=O)N1 | 4.9%
CCOC(=O)c1[nH]c2ccc(F)cc2c1NC(=O)c1ccccc1C(=O)O | 1.95%

Single results of other studies
Structure (SMILES) | target | assay | setting | measurement | result
N#CC1(c2ccccn2)CCN(Cc2cc(C(=O)O)c(=O)n3ccccc23)CC1 | STK17B (Homo sapiens, UniProt O94768) | cell-free assay, competition with immobilised ligand | 1 µM | remaining binding | 100%
CNC(=O)c1ccc(-c2cnn3ccc(C(=O)N(C)c4ccc(Cl)c(C(=O)O)c4)cc23)cc1 | MAPK1 (Homo sapiens, UniProt P28482) | enzyme activity, inhibitor |  | IC50 | > 30 µM

Excerpt of the above (series 2):
SMILES | inhibition
O=C(CSc1ccc2nnc(-c3ccc(Cl)cc3)n2n1)Nc1cccc(F)c1 | -2.65%
